Measurements collected from several papers.
Compare with care: the assays were run in different laboratories. ± marks the error that the study gave.
Faah: Fatty-acid amide hydrolase 1 (Faah, Rattus norvegicus, UniProt P97612)
Sequence of UniProt P97612 (whole entry, looked up): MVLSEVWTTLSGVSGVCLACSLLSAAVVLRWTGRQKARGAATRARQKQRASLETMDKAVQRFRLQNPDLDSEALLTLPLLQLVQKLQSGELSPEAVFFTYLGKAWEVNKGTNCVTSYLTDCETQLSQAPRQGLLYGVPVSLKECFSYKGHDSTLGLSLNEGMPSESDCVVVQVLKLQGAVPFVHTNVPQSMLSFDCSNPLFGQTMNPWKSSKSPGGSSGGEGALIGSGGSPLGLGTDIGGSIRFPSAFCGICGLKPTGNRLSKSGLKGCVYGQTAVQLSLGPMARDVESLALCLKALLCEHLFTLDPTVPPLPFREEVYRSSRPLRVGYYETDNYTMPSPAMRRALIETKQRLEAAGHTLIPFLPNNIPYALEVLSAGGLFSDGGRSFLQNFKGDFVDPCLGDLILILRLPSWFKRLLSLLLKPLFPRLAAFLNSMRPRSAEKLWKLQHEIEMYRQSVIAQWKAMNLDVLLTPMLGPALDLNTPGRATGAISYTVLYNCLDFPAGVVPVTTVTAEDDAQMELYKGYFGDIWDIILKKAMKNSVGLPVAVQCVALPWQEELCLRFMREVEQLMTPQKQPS
Histone acetyltransferase RTT109 with Vps75: Histone acetyltransferase RTT109, with Vps75 (Saccharomyces cerevisiae, UniProt Q07794)
Sequence of UniProt Q07794 (whole entry, looked up): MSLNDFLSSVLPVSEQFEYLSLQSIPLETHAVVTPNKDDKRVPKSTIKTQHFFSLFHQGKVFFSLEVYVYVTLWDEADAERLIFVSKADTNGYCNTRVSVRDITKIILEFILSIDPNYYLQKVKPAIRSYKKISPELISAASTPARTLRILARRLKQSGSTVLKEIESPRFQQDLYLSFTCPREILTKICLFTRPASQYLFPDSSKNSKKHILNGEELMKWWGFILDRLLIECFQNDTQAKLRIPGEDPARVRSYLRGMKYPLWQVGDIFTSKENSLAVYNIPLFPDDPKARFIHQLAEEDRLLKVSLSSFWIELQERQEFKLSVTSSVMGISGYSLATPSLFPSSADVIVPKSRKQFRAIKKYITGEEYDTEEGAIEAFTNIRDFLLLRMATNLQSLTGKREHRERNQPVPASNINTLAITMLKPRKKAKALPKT
BRD4 BD1: Bromodomain-containing protein 4, BD1 (BRD4, Homo sapiens, UniProt O60885)
LYN: Tyrosine-protein kinase Lyn (LYN, Homo sapiens, UniProt P07948)
Sequence of UniProt P07948 (whole entry, looked up): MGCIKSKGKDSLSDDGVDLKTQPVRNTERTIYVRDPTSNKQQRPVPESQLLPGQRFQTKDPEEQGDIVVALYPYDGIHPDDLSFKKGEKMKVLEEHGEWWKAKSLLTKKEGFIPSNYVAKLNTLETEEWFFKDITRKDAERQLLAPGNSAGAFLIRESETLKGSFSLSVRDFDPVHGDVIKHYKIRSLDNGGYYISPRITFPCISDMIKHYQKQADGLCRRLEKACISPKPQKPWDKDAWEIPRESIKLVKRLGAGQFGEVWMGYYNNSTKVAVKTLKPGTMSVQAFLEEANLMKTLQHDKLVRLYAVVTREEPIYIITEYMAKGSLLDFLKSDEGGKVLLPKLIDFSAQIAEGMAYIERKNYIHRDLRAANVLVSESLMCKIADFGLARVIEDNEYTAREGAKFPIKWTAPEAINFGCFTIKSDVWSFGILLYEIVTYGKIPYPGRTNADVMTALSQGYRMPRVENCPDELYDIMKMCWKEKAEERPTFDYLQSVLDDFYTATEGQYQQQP
SIRT2: NAD-dependent protein deacetylase sirtuin-2 (SIRT2, Homo sapiens, UniProt Q8IXJ6)
Sequence of UniProt Q8IXJ6 (whole entry, looked up): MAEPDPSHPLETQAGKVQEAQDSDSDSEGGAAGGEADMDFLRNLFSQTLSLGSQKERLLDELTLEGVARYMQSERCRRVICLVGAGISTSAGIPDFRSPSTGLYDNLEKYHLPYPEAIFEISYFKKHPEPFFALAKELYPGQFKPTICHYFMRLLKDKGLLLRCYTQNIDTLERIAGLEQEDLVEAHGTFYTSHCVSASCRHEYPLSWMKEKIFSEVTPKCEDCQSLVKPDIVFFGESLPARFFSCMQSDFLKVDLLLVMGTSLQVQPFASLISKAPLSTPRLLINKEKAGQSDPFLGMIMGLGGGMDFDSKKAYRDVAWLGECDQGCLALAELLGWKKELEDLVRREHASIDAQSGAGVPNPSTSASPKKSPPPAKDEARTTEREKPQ
CYP2C8: Cytochrome P450 2C8 (CYP2C8, Homo sapiens, UniProt P10632)
Sequence of UniProt P10632 (whole entry, looked up): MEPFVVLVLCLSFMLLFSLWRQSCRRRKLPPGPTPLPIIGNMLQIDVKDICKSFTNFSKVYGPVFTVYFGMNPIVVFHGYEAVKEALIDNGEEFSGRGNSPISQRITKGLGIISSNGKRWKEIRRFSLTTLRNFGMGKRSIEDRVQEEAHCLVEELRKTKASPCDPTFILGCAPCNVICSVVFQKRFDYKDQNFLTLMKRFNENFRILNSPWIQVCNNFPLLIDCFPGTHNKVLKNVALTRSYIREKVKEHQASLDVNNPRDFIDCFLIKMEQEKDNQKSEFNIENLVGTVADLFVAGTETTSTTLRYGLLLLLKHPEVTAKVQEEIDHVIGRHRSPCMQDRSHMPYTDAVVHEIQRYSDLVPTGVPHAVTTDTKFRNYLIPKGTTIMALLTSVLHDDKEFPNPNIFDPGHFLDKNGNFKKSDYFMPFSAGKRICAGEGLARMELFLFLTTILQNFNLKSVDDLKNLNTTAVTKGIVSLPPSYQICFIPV
UCHL1: Ubiquitin carboxyl-terminal hydrolase isozyme L1 (UCHL1, Homo sapiens, UniProt P09936)
Sequence of UniProt P09936 (whole entry, looked up): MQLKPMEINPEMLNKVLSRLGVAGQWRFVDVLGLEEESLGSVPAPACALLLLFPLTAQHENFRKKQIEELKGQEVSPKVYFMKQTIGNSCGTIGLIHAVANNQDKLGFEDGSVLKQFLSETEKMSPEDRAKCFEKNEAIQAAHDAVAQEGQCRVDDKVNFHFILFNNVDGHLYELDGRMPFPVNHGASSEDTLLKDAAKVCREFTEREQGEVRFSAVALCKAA
Sequence of UniProt Q06187 (whole entry, unmodified, looked up): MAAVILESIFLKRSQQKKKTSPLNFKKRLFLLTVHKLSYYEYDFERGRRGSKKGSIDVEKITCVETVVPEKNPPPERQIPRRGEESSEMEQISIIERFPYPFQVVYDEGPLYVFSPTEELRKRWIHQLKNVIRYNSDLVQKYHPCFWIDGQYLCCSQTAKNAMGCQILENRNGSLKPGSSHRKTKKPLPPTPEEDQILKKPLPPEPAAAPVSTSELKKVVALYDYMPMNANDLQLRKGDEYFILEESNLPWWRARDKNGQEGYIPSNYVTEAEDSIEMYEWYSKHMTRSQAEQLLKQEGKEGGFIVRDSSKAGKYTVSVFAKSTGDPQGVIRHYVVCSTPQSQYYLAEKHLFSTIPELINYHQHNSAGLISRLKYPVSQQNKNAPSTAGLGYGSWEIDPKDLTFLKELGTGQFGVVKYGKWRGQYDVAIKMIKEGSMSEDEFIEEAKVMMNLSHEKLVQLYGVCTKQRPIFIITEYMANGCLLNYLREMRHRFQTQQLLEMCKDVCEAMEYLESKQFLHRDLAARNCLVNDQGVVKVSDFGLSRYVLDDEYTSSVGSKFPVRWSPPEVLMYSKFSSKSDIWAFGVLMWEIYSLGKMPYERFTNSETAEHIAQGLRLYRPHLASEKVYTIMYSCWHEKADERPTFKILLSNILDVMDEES
Sequence of UniProt P25103 (whole entry, looked up): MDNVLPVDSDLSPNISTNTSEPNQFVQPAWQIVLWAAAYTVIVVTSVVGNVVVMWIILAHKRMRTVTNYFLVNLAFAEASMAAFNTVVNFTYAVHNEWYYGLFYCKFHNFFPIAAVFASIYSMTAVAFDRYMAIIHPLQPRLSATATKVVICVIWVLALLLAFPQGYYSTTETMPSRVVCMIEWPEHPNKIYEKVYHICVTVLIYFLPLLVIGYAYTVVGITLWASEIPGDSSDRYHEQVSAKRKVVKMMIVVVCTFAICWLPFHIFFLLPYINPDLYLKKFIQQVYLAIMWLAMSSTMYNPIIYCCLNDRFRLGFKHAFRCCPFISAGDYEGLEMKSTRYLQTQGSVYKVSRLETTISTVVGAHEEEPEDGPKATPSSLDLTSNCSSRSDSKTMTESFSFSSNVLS
Sequence of UniProt P49759 (whole entry, looked up): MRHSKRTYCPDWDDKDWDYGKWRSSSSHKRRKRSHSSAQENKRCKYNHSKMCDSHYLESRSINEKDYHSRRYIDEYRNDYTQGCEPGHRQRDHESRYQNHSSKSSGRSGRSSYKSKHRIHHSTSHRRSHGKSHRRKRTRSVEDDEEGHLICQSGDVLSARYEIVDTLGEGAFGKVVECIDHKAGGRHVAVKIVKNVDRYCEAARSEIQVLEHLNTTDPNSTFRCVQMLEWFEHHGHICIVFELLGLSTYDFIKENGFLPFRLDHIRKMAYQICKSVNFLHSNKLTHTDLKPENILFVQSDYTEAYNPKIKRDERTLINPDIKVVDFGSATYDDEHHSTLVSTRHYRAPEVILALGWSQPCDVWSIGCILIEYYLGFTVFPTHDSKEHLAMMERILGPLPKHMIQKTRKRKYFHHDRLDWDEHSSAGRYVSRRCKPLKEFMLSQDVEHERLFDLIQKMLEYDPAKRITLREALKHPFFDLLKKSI
Sequence of UniProt Q16881 (whole entry, looked up): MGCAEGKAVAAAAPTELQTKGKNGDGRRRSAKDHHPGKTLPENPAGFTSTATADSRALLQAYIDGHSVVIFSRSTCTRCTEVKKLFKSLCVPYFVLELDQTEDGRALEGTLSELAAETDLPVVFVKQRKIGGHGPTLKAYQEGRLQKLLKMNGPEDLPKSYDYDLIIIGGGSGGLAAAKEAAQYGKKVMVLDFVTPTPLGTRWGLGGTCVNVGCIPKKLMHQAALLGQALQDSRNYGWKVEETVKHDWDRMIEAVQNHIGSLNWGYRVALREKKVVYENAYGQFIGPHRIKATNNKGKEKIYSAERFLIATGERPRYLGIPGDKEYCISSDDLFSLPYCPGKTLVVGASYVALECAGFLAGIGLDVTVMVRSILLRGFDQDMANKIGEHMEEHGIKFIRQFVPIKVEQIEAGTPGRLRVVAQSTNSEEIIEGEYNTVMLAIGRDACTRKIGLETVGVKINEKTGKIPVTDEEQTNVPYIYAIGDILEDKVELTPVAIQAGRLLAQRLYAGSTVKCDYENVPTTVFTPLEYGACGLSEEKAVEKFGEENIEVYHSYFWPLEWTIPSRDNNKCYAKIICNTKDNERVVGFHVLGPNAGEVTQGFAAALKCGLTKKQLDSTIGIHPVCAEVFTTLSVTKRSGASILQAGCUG

SMILES	target or system	test	test system	setting	how to read	measurement	result
O=C(Nc1cccnn1)N1CCC(=Cc2cccc(Oc3ccc(C(F)(F)F)cn3)c2)CC1	Faah	enzyme activity, inhibitor	rat brain membranes	0 min preincubation	–	IC50	0.0039 µM
O=S(=O)(Nc1ccc(O)c(Br)c1)c1ccccc1	Histone acetyltransferase RTT109 with Vps75	enzyme activity, inhibitor, HTS, CPM-based, dose response	–	–	–	IC50	> 125 µM
O=c1c(O)c(-c2ccc(O)c(O)c2)oc2cc(O)ccc12	serine/threonine phosphatase Stp1 (Staphylococcus aureus, UniProt A0A0H2XF73)	phosphatase activity, inhibitor	–	–	–	IC50	> 349 µM
O=C(Nc1ccc(Cl)cc1)c1ccc([N+](=O)[O-])o1	Thioredoxin reductase 1, cytoplasmic (TXNRD1, Homo sapiens, UniProt Q16881)	enzyme activity, inhibitor	NCI-H23 cell lysate	–	–	IC50	3.8 µM
O=S(=O)(Nc1ccccc1)c1cccc2nsnc12	Histone acetyltransferase RTT109 with Vps75	enzyme activity, inhibitor, HTS, CPM-based, dose response	–	–	–	IC50	> 125 µM
CN(C)C(=O)c1cc2cnc(Nc3cc(C(=O)O)cc(-c4ccc5c(=O)cc(N6CCOCC6)oc5c4)c3)nc2n1C1CCCC1	BRD4 BD1	inhibitor	–	–	–	IC50	> 10 µM
Cc1nc(Nc2ncc(C(=O)Nc3c(C)cccc3Cl)s2)cc(N2CC[C@H](O)C2)n1	Tyrosine-protein kinase BTK (BTK, Homo sapiens, UniProt Q06187, C481S)	enzyme activity, inhibitor	–	–	–	IC50	0.00072 µM
O=C(CCC(=O)Nc1ccc(Cl)cc1Cl)N/N=C/c1ccc([N+](=O)[O-])o1	Trypanosoma cruzi	reporter translation, Renilla luciferase mRNA translation	cell-free extract	40 µM	reference: DMSO	inhibition	6.9%
Cc1ccc2[nH]nc(-c3nnc(Nc4ccc(Cl)c(Br)c4)s3)c2c1	thymidine phosphorylase	enzyme activity, inhibitor, spectrophotometric	–	pH 7.5, 25 °C	–	IC50	17.3 ± 0.49 µM
COc1ccc2[nH]c3c(c2c1)CCN(C1CC(=O)N(c2ccc(Br)cc2)C1=O)C3 (centres unmarked)	Histone acetyltransferase RTT109 with Vps75	enzyme activity, inhibitor, HTS, CPM-based, dose response	–	–	–	IC50	> 125 µM
Cc1cnc(-c2ccc(-c3ccc(NC(=O)Nc4c(F)cc(F)cc4F)cc3F)c3c2C(=O)NC3)[nH]1	LYN	enzyme activity, inhibitor	–	added: ATP at Km	–	IC50	0.002 µM
O=S1(=O)C=C(Br)c2ccccc21	Histone acetyltransferase RTT109 with Vps75	enzyme activity, inhibitor, HTS, CPM-based, dose response	–	–	–	IC50	> 125 µM
Cc1c(-c2ccccc2)oc2ccccc2c1=O	Anoctamin-1 (Ano1, Mus musculus, UniProt Q8BHY3)	chloride current	HEK293 transfected	at +80 mV	–	IC50	26.5 µM
N[C@@H]1C[C@]1(F)c1ccc(C(F)(F)F)cc1 (relative stereo)	tyramine oxidase (Arthrobacter sp.)	enzyme activity, inhibitor, spectrophotometric benzylamine oxidation	–	10 min preincubation, pH 7.2, 25 °C, added: benzylamine 0.6 mM substrate	–	IC50	3.6 µM
CC(=O)c1cnc2ccc(-c3cc(Cl)c(O)c(Cl)c3)nc2c1N[C@H]1CC[C@H](CN(C)C)CC1	Receptor-like protein kinase FERONIA (FER, Arabidopsis thaliana, UniProt Q9SCZ4, K565A)	kinase activity, inhibitor, ADP-Glo	–	–	–	IC50	> 100 µM
CN(C)C(=O)c1cc2cnc(Nc3ccc(-c4ccc5c(=O)cc(N6CCOCC6)oc5c4)cc3)nc2n1C1CCCC1	BRD4 BD1	inhibitor	–	–	–	IC50	> 10 µM
CN1CCN(c2ccc(Nc3ncc4cc(C#N)c(=O)n(C5CCCC5)c4n3)cc2)CC1	Dual specificity protein kinase CLK1 (CLK1, Homo sapiens, UniProt P49759)	–	–	–	–	IC50	0.446 µM
COc1ccccc1CC(=N)N1C[C@@H]2C(=O)CCC(c3ccccc3)(c3ccccc3)[C@@H]2C1	Substance-P receptor (TACR1, Homo sapiens, UniProt P25103)	intracellular calcium increase, antagonist	U373 MG	added: substance P 100 nM	–	IC50	> 0.2 µM
Cc1ccc(Cn2cc(COc3cccc(Cc4cnc(NC(=O)CSc5nc(C)cc(C)n5)s4)c3)nn2)cc1	SIRT2	–	–	–	–	IC50	0.17 µM

SMILES	target or system	test	test system	setting	how to read	measurement	result
CCc1ccc2nc(N(CCN(C)C)C(=O)c3ccc4ncsc4c3)sc2c1	Trypanosoma cruzi	reporter translation, Renilla luciferase mRNA translation	cell-free extract	40 µM	reference: DMSO	inhibition	-7.6%
O=C(O)c1ccc2nc(-c3ccc(OCC(COc4ccc(-c5nc6ccc(C(=O)O)cc6[nH]5)cc4)(COc4ccc(-c5nc6ccc(C(=O)O)cc6[nH]5)cc4)COc4ccc(-c5nc6ccc(C(=O)O)cc6[nH]5)cc4)cc3)[nH]c2c1	Beta-lactamase (Escherichia coli, UniProt Q8VNN1)	enzyme activity, inhibitor	–	–	–	IC50	37 ± 9.6 µM
CC[C@@H]1[C@H](F)C(=O)N[C@@H]1COc1nccc2cc(C(N)=O)c(OC)cc12	Leucine-rich repeat serine/threonine-protein kinase 2 (LRRK2, Homo sapiens, UniProt Q5S007)	ATP-site probe binding, ActivX profiling	THP-1 cell lysate	Lys2 site	–	IC50	0.91 µM
COc1cc(O)c(CC=C(C)C)c(O)c1C(=O)/C=C/c1ccc(O)cc1	CYP2C8	enzyme activity, inhibitor	human liver microsomes	pH 7.4, added: amodiaquine	–	IC50	1.1 ± 0.1 µM
O=C(NC1CS(=O)(=O)c2ccccc21)c1cc2ccccc2s1 (centres unmarked)	Histone acetyltransferase RTT109 with Vps75	enzyme activity, inhibitor, HTS, CPM-based, dose response	–	–	–	IC50	> 125 µM
CN(C)C(=O)c1cc2cnc(Nc3cc(C(F)(F)F)c(-c4ccc5c(=O)cc(N6CCOCC6)oc5c4)cn3)nc2n1C1CCCC1	BRD4 BD1	inhibitor	–	–	–	IC50	> 10 µM
Cc1cc(OC(C)C)ccc1C(=O)C(C)(C)NC(=O)c1sccc1C	succinate-cytochrome c oxidoreductase (Botrytis cinerea, UniProt A0A384J5E4+D2IH01+D2IH03)	succinate-cytochrome c reductase activity	Botrytis cinerea, mitochondrial fraction	25 °C	–	IC50	0.00278 µM
Cn1nc2c(=O)n(C3CC3)ncc2c1[C@](O)(c1cnc(C(F)(F)F)c(Cl)c1)C(F)(F)F	Dihydroorotate dehydrogenase (Canis lupus familiaris, UniProt A0A8I3MWX2)	enzyme activity, inhibitor, DCIP reduction	–	–	–	IC50	> 30 µM
CCC(=O)Nc1nc(-c2ccccc2)ns1	Histone acetyltransferase RTT109 with Vps75	enzyme activity, inhibitor, HTS, CPM-based, dose response	–	–	–	IC50	> 125 µM
CN1C(=O)C(=C(C#N)C(=O)NCc2ccc(Cl)cc2)c2ccccc21	UCHL1	inhibitor, ubiquitin-rhodamine cleavage	–	2 h preincubation	–	IC50	> 200 µM
CS(=O)(=O)c1ccc(-c2ccc(NC(=O)COc3ccccc3)cc2)nn1	Catenin beta-1, with BCL9 HD2 (CTNNB1, Homo sapiens, UniProt P35222)	BCL9 binding, inhibitor, AlphaScreen	–	–	–	IC50	40 µM
O=c1cc(-c2ccc(O)c(O)c2)oc2cc(O)cc(O)c12	Angiotensin-converting enzyme (ACE, Oryctolagus cuniculus, UniProt P12822)	enzyme activity, inhibitor	methanol/water 50:50	2 h, pH 8.3, 37 °C, added: hippuryl-histidyl-leucine	–	IC50	54.2 ± 8.33 µM
C[C@H]1CN(C2COC2)CCN1c1ccc(Nc2cc(-c3ccnc(N4CCn5c(cc6c5CC(C)(C)C6)C4=O)c3CO)cn(C)c2=O)nc1	LYN	–	–	–	–	IC50	> 5 µM
NC/C(=C\F)COc1cccc(Cn2c(=S)[nH]c(=O)c3[nH]cnc32)c1	CYP2C8	enzyme activity, inhibitor	–	CYP2C8 screen	–	IC50	> 10 µM
N#CC(=Cc1ccccc1Cl)C(=O)NCc1ccccc1	UCHL1	inhibitor, ubiquitin-rhodamine cleavage	–	2 h preincubation	–	IC50	> 200 µM
O=S1(=O)CC(O)c2ccccc21 (centres unmarked)	Histone acetyltransferase RTT109 with Vps75	enzyme activity, inhibitor, HTS, CPM-based, dose response	–	–	–	IC50	> 125 µM
CCCCCCCCCCCCNC(=S)NCCCC[C@H](NS(C)(=O)=O)C(=O)N[C@H](C)C(=O)N[C@@H](CCCNC(=N)N)C(=O)N1CCOCC1	SIRT2	enzyme activity, inhibitor	–	–	–	IC50	13 ± 2 µM
O=C(Cc1ccc(-c2ccccc2)cc1)NC1CS(=O)(=O)c2ccccc21 (centres unmarked)	Histone acetyltransferase RTT109 with Vps75	enzyme activity, inhibitor, HTS, CPM-based, dose response	–	–	–	IC50	> 125 µM
O=C(Nc1cnccc1Cl)N1CCN(Cc2ccc3c(c2)OC(F)(F)O3)CC1	Faah	enzyme activity, inhibitor	rat brain membranes	0 min preincubation	–	IC50	0.473 µM

Some of these lines once more:
SMILES	target or system	test	test system	setting	how to read	measurement	result
CN(C)C(=O)c1cc2cnc(Nc3cc(C(F)(F)F)c(-c4ccc5c(=O)cc(N6CCOCC6)oc5c4)cn3)nc2n1C1CCCC1	BRD4 BD1	inhibitor	–	–	–	IC50	> 10 µM
Cc1cc(OC(C)C)ccc1C(=O)C(C)(C)NC(=O)c1sccc1C	succinate-cytochrome c oxidoreductase (Botrytis cinerea, UniProt A0A384J5E4+D2IH01+D2IH03)	succinate-cytochrome c reductase activity	Botrytis cinerea, mitochondrial fraction	25 °C	–	IC50	0.00278 µM
Cn1nc2c(=O)n(C3CC3)ncc2c1[C@](O)(c1cnc(C(F)(F)F)c(Cl)c1)C(F)(F)F	Dihydroorotate dehydrogenase (Canis lupus familiaris, UniProt A0A8I3MWX2)	enzyme activity, inhibitor, DCIP reduction	–	–	–	IC50	> 30 µM
CCC(=O)Nc1nc(-c2ccccc2)ns1	Histone acetyltransferase RTT109 with Vps75	enzyme activity, inhibitor, HTS, CPM-based, dose response	–	–	–	IC50	> 125 µM
